# Results from different studies.
# A part holds a random share of what one study measured. Positions count from the first letter of the parent shown.
# UniProt Q9UQM7, sequence (whole entry, looked up): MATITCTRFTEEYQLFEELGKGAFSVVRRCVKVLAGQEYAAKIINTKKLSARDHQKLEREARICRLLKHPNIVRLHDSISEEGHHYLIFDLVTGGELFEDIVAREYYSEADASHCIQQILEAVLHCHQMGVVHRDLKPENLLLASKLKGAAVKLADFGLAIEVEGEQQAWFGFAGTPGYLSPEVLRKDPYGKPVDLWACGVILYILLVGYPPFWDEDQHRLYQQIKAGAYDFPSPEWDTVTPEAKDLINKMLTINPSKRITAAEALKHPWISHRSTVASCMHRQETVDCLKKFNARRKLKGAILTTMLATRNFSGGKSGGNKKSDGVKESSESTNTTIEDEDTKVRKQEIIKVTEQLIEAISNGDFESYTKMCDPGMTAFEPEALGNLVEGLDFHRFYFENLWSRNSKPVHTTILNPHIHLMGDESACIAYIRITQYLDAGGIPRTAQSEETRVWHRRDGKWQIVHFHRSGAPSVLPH

# Set 1
# Target: CCND2, cyclin fold, Cln2 fusion (human)
# Technique: yeast growth competition, sequencing
# Sample: yeast
# Setting: weak parent motif
# Reference: not given
# Reading: higher = stronger binding
# Parent: viral docking peptide; KGVKRKLFAEDSS
Variant,normalised enrichment score
L7W,-0.577
K6R,0.565
S12R,0.15
K6S,-0.163

# Further values, each from its own experiment
# HLA class I histocompatibility antigen, B alpha chain allele B*08:02: HLA class I histocompatibility antigen, B alpha chain, allele B*08:02 (Homo sapiens, UniProt P01889)
Molecule,target or system,test,test system,conditions,endpoint,result
FMKSRVYSI,"HLA class I histocompatibility antigen, B alpha chain allele B*08:02",peptide-MHC binding,peptide,concentration not given,binding,active
CCC1(c2ccc(N)cc2)CCC(=O)NC1=O (centres unmarked),A-375,,,"100 µM, 18 h",viability,81.5%
WAKRRPATF,"HLA class I histocompatibility antigen, B alpha chain allele B*08:02",peptide-MHC binding,peptide,concentration not given,binding,active
CCCCCCCCCC(=O)N[C@@H](Cc1c[nH]c2ccccc12)C(=O)N[C@H](CC(N)=O)C(=O)N[C@@H](CC(=O)O)C(=O)N[C@@H]1C(=O)NCC(=O)N[C@@H](CCCN)C(=O)N[C@@H](CC(=O)O)C(=O)N[C@H](C)C(=O)N[C@@H](CC(=O)O)C(=O)NCC(=O)N[C@H](CO)C(=O)N[C@@H]([C@H](C)CC(=O)O)C(=O)N[C@@H](CC(=O)c2ccccc2N)C(=O)O[C@@H]1C,"CAMK2A (Homo sapiens, UniProt Q9UQM7)","enzyme activity, inhibitor",,10 µM,inhibition,-7%

# Excerpt of the above (set 1):
Variant,normalised enrichment score
K6S,-0.163
